Results from different studies.
Every numbered part comes from another study and shows a few of its results, in no order.

Set 1
Target: Centromere-binding protein 1, full length, N-terminal tag (CBF1, Saccharomyces cerevisiae, UniProt P17106, residues 1-351)
UniProt P17106, sequence (whole entry, looked up): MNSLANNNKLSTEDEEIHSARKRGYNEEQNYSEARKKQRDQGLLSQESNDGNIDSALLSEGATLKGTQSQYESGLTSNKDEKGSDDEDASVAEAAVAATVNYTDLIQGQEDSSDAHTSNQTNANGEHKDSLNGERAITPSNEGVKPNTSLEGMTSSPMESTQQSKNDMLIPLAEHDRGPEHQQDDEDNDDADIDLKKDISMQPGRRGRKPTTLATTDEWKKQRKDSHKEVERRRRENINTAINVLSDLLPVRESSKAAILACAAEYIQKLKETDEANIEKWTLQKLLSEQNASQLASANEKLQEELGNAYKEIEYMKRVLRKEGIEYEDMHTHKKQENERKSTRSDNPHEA
Method: protein-binding microarray
Form: double-stranded DNA, one strand shown
Sample: in vitro
Tested at: 0.8 µM
Notes: whole 60-bp probe, no competitor
Reading: higher = stronger binding
Constant ends, left off below: … GTCTTGATTCGCTTGACGCTGCTG
Strand | fluorescence intensity [a.u.]
CCTAACTACTATATCAACATGCAATAGCTTCGTACA | 534
GAAATATACTGCTATCACATGCTAAAACAAGAGTAG | 2030
GAAAACGTTTTTTACCACGTTCCAACTCCGTCCTAG | 586
CTACAATGCCTCTATGTCACCTTCAATAGAAGTTTC | 524
CTAATAGTTATGAAATACCTGATGAAACGCTTCTTC | 523
GAACTAGCCAATCTCCACGAGATTTATCTGGAATAG | 503
CTAAAAGGGAAAAGCCACATGCGGAAGAATTTTTTC | 573
GAAATTTCCAACTTACACATGGAGCCGTTGTATTAG | 520
GAATTGCTATCGTTCAACACCACCTTATTTTCTTAG | 540
CTAGTAGGAATTGATCACGAAGAATTTCTAATCTTC | 556

Set 2
Target: Myc proto-oncogene protein, bHLH-zipper, MAX partner unstated (MYC, Homo sapiens, UniProt P01106, residues 368-449)
UniProt P01106, sequence (368-449, looked up): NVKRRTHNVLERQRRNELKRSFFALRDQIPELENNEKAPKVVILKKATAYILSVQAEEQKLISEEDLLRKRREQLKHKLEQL
Method: protein-binding microarray
Form: double-stranded DNA, one strand shown
Sample: in vitro
Tested at: not given
Notes: k-mer, scored over probes, only values ≥0.25
Reading: higher = stronger binding
Strand | E-score
CATGCGTC | 0.431
AGTCCATG | 0.27
AACCTCAT | 0.324
GCGCTGCA | 0.268
AACATGGC | 0.255
CGCGTGAA | 0.367
CGCATGGC | 0.472
GCACACGC | 0.423

Set 3
Target: RING finger protein unkempt homolog, zinc fingers 1-6, SBP tag (UNK, Homo sapiens, UniProt Q9C0B0, residues 30-357)
UniProt Q9C0B0, sequence (30-357, looked up): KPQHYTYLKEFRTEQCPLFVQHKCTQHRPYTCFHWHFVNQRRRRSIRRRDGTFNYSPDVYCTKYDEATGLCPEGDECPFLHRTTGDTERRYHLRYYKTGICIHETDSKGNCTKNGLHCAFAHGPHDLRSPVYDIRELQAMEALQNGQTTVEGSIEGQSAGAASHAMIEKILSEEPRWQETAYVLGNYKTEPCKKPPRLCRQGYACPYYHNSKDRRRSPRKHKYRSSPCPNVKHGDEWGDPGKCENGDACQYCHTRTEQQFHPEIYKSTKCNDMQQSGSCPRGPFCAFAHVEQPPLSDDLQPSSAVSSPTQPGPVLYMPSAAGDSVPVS
Method: RNA Bind-n-Seq
Form: RNA
Sample: in vitro
Tested at: 100 nM
Notes: RNA with constant flanks, vertebrate orthologous sites, ends assumed
Reference: input RNA pool
Reading: higher = stronger binding
Constant ends, left off below: GGGAGUUCUACAGUCCGACGAUC … CAACAGAGGAUUGAGCAUCA
Strand | bound/input enrichment [ratio]
GGCGAGGCUGGGCUCCUGCUCACUGCCCACUCCUGCAUCCUGUCCUUCACUCCCCAUCACACAGCUCUGUGAGCAUGAAGUGCGUGGAGUUUGUGUGAAAUGGAACUGCCACCCAAGCCC | 0.758
CUCUCUUAGCGAUAGUAUUCCAUCCGUAGCAGAUUCUCACUCGAGUCAUUUUUCUGAGUUCAGUUGCUCAGAUAUGGAAAGUAUGAAAACUUCCUGUAGCCACGGUUCCAGCGACUAUCA | 1.79
GUCCCUCAGUGAUAGCAUGCCAUCUGUAGCAGACUCCCACUCAAGUCAUUUCUCUGAAUUUAGUUGUUCCGAUAUGGAAAGCAUGAAAACUUCUUGUAGCCAUGGUUCCAGUGAUUAUCA | 0.621
UUUGUGGGGGUUGGGGGGUGGGAGGAAGAUGUAUGAAGAUUAUUGGCAUUUUUAAGUGUUUGGAGUUUAGGGUAUUUUUUUUUUUGCCUCCUCUUUUAUUUUUCCCCCCUUUAAUUGGAU | 0.799
UGAGUGAGAGAUUCCUGUGCUUUCUCAUAUUUAAUUUGCUCUUUUUAAGAUAUUCCAACCUAGAGUUUUUGAUGGAACUGAUAUAUUGACAAUUCUCAUCUAAGUCCUUUUAUAAAGAAU | 0.617
UUUUUAAAUUUUUUUUUAAUUUAAGUUUUUCCUUUCAGGGGUAAAGUUUGCUUUACCAAAUAGUGAUUGUAACAAAUUGAUCUGUUUUGGAUGUUGCUAUAGUGACAUGCAGUUCUAUAU | 0.799
GUCUUUUCUAGGUUGGAUCUACUGGAAAAGUCAUAGGAAUUGAUCACAUUAAGGAAUUAGUAGAUGACUCAAUAAAUAACGUCAGAAAGGAUGAUCCAUUGCUUUUGUCUUCAGGGAGAG | 0.815

Single results of other studies
Molecule | target | assay | test system | setting | how to read | measurement | result
PhoQ, residues 284 288 289 292 302 303 GLASVI | PhoP, residues 12 14 15 18 19 LHATL (Escherichia coli, UniProt P23836) | Sort-seq, refers to: YFP reporter | E. coli | PhoQ-PhoP variant library, added: 10 µM Mg2+ | reference: high Mg2+ state, higher = stronger signaling | fold induction | 3.46

Some of these lines once more (set 2):
Strand | E-score
GCACACGC | 0.423
